# Measured values of several laboratories.
# Several values in a cell are separate wells, animals, samples, runs or records. ± marks the error that the study gave.
Structure (SMILES),assay,test system,conditions,tissue uptake
CCCC[C@H](NC(=O)CNC(=O)CNC(=O)[C@H](CCCCNC(=O)[C@H](CC(=O)O)NC(=O)C(C)c1ccc(CC(C)C)cc1)NC(=O)CN1CCN(CC(=O)O)CCN(CC(=O)O)CCN(CC(=O)O)CC1)C(=O)N[C@H]1CC(=O)NCCCC[C@@H](C(N)=O)NC(=O)[C@H](Cc2c[nH]c3ccccc23)NC(=O)[C@H](CCCNC(=N)N)NC(=O)[C@@H](Cc2ccccc2)NC(=O)[C@H](Cc2c[nH]cn2)NC1=O (stereo partly drawn) [lutetium-177 labelled],,"C57 mice, tumour-bearing, muscle","intravenous, 0.037 MBq, 0.5 h",0.95 ± 0.05 %ID/g
CCCC[C@H](NC(=O)COCCOCCNC(=O)CN1CCN(CC(=O)O)CCN(CC(=O)O)CC1)C(=O)N[C@H]1CC(=O)NCCCC[C@@H](C(N)=O)NC(=O)[C@H](Cc2c[nH]c3ccccc23)NC(=O)[C@H](CCCNC(=N)N)NC(=O)[C@@H](Cc2ccccc2)NC(=O)[C@H](Cc2c[nH]cn2)NC1=O [fluorine-18 labelled],,"C57 mice B16-F10 melanoma, pancreas","intravenous, 0.37 MBq, 2 h",0.56 ± 1.11 %ID/g
N#C[C@@H]1CCCN1C(=O)CNC(=O)c1ccnc2ccc(OCCCN3CCN(C(=O)CCc4ccc(O)c(CN5CCN6CC(=O)[O][Al-]([18F])([O]C(=O)C5)[O]c5ccc(CCC(=O)N7CCN(CCCOc8ccc9nccc(C(=O)NCC(=O)N%10CCC[C@H]%10C#N)c9c8)CC7)cc5C6)c4)CC3)cc12 (stereo partly drawn),,"BALB/c nude mice, U-87 MG xenograft, lung",2 h,3.41 ± 0.54 %ID/g
COc1ccc(Nc2nc(Nc3ccc(OCCOCCOCC[18F])cc3)ncc2Br)cc1,,"ICR mice, S180 tumour-bearing, brain","intravenous, 370 kBq, 30 min",1.91 ± 0.1 %ID/g
N#C[C@@H]1CCCN1C(=O)CNC(=O)c1ccnc2ccc(OCCCN3CCN(C(=O)CCc4ccc5c(c4)CN4CCN(Cc6cc(CCC(=O)O)ccc6O)CC(=O)[O][Al-]([18F])([O]C(=O)C4)[O]5)CC3)cc12 (stereo partly drawn),,"BALB/c nude mice, U-87 MG xenograft, gallbladder","1 h, blocked 60 min, with: DOTA-FAPI-04 40 nmol co-injected",102 ± 16.8 %ID/g
COc1ccc(Nc2nc(Nc3ccc(OCCOCC[18F])cc3)ncc2Br)cc1,,"ICR mice, S180 tumour-bearing, brain","intravenous, 370 kBq, 60 min",2.05 ± 0.32 %ID/g
CC(C)C[C@H](NC(=O)[C@@H](CCCCNC(=O)[C@@H](Cc1ccccc1)NC(=O)CCCCCCCNC(=O)CN1CCN(CC(=O)O)CCN(CC(=O)O)CCN(CC(=O)O)CC1)NC(=O)[C@H](Cc1ccc(O)cc1)NC(=O)[C@H](CO)NC(=O)[C@H](Cc1c[nH]c2ccccc12)NC(=O)[C@H](Cc1c[nH]cn1)NC(=O)[C@@H]1CCC(=O)N1)C(=O)N[C@@H](CCCNC(=N)N)C(=O)N1CCC[C@H]1C(=O)NCC(N)=O [indium-111 labelled],biodistribution,"male athymic nude mice, DU-145 prostate cancer xenograft, heart","intravenous, 0.037 MBq, 4 h post-injection",0.12 ± 0.09 %ID/g
N#C[C@@H]1CCCN1C(=O)CNC(=O)c1ccnc2ccc(OCCCN3CCN(C(=O)CCc4ccc5c(c4)CN4CCN6CC(=O)[O][68Ga-]([O]C(=O)C4)([O]5)[O]c4ccc(CCC(=O)N5CCN(CCCOc7ccc8nccc(C(=O)NCC(=O)N9CCC[C@H]9C#N)c8c7)CC5)cc4C6)CC3)cc12,,"BALB/c nude mice, U-87 MG tumour, gallbladder",60 min post-injection,53.5 ± 16.9 %ID/g
Cc1cc(C)n(CCN(CCN)CCCCCCNC(=O)[C@@H](N)Cc2c[nH]cn2)n1.[99Tc+].[C-]#[O+].[C-]#[O+].[C-]#[O+],,"BALB/c nude mice, A549 xenograft, pancreas","intravenous, 4 h",0.49 ± 0.01 %IA/g
O=C([O-])CN1CCN(CC(=O)[O-])CCN(CC(=O)NC[C@H]2CC[C@H](C(=O)N[C@H](Cc3cnc4ccccc4c3)C(=O)NCCCC[C@H](NC(=O)N[C@@H](CCC(=O)O)C(=O)O)C(=O)O)CC2)CCN(CC(=O)[O-])CC1.[64Cu+2],ex vivo gamma counting,"22Rv1 tumour-bearing mice, muscle","intravenous, 0.74 MBq, 6 h post-injection",1.56 %ID/g
O=C(NCC1OC2CCC=CCCC2O1)c1ccc([18F])nc1 (stereo not drawn),,"healthy female BALB/c nude mice, blood","intravenous, 7.4 MBq per mouse, 5 min",5.2 ± 1 %ID/g
COc1ccc2c(c1)C(C)(C)C(/C=C/C1=C(Oc3ccc(C(=O)NCCCCOc4cc(CN(Cc5ccccn5)Cc5ccccn5)cc(CN(Cc5ccccn5)Cc5ccccn5)c4)cc3)C(=C/C=C3/N(CCCCS(=O)(=O)[O-])c4ccc(OC)cc4C3(C)C)CCC1)=[N+]2CCCCS(=O)(=O)[O-].O=[N+]([O-])[O-].O=[N+]([O-])[O-].[99Tc+].[C-]#[O+].[C-]#[O+].[C-]#[O+].[Zn+2],,"BALB/c mice, healthy, small intestine with contents",12 h post-injection,1.54 %ID/g and 1.61 %ID/g and 3.2 %ID/g
Cc1cc(C)n(CCN(CCN)CCCCCCNC(=O)[C@@H](N)Cc2c[nH]c3ccccc23)n1.[99Tc+].[C-]#[O+].[C-]#[O+].[C-]#[O+],,"BALB/c nude mice, A549 xenograft, liver","intravenous, 4 h",22.4 ± 3.23 %IA/g
O=C(NCC1OC2CCC=CCCC2O1)c1ccc(COCCOCCOCC[18F])cc1 (stereo not drawn),,"healthy female BALB/c nude mice, pancreas","intravenous, 7.4 MBq per mouse, 120 min",1.1 ± 0.03 %ID/g
CCCC[C@H](NC(=O)CCCCCCCNC(=O)CN1CCN(CC(=O)O)CCN(CC(=O)O)CC1)C(=O)N[C@H]1CC(=O)NCCCC[C@@H](C(N)=O)NC(=O)[C@H](Cc2c[nH]c3ccccc23)NC(=O)[C@H](CCCNC(=N)N)NC(=O)[C@@H](Cc2ccccc2)NC(=O)[C@H](Cc2c[nH]cn2)NC1=O [fluorine-18 labelled],,"C57 mice B16-F10 melanoma, spleen","intravenous, 0.37 MBq, 0.5 h",0.84 ± 0.12 %ID/g

# A few entries again:
Structure (SMILES),assay,test system,conditions,tissue uptake
O=C(NCC1OC2CCC=CCCC2O1)c1ccc([18F])nc1 (stereo not drawn),,"healthy female BALB/c nude mice, blood","intravenous, 7.4 MBq per mouse, 5 min",5.2 ± 1 %ID/g
O=C([O-])CN1CCN(CC(=O)[O-])CCN(CC(=O)NC[C@H]2CC[C@H](C(=O)N[C@H](Cc3cnc4ccccc4c3)C(=O)NCCCC[C@H](NC(=O)N[C@@H](CCC(=O)O)C(=O)O)C(=O)O)CC2)CCN(CC(=O)[O-])CC1.[64Cu+2],ex vivo gamma counting,"22Rv1 tumour-bearing mice, muscle","intravenous, 0.74 MBq, 6 h post-injection",1.56 %ID/g
